Experimental data collected from several papers.
Every numbered part comes from another study and shows a few of its results, in no order.
Chain of UniProt P34969 (whole entry, looked up): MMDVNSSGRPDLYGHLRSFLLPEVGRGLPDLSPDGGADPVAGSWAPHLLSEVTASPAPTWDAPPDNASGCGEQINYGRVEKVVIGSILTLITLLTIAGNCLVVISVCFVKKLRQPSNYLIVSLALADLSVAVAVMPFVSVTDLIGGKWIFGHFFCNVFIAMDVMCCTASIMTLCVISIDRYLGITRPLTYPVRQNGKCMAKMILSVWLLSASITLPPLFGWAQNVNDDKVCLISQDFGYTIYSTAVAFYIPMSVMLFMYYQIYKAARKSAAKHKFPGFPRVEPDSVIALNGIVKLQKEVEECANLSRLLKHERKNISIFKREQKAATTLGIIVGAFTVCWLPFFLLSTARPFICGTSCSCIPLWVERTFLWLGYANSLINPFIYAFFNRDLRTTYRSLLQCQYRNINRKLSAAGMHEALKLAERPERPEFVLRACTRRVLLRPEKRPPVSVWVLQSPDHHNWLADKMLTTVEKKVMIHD

Series 1
Target: Probable WRKY transcription factor 33, N-terminal DNA-binding domain (WRKY33, Arabidopsis thaliana, UniProt Q8S8P5, residues 169-264)
Technique: DNA-protein interaction ELISA
Molecule type: double-stranded DNA, one strand shown
Medium: in vitro, bacterial lysate
Concentration: not given
Notes: whole dsDNA probe, crude lysate protein
Baseline: highest signal in screen
Reading: higher = stronger binding
Residues (chain): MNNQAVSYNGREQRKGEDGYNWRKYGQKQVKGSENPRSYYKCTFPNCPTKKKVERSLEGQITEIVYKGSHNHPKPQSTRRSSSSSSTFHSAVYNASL
Strand | relative absorbance
AAAAAAGGCCGTTGGACCTCGGTCTAAAAA | 20.1 % of maximum
AAAAAAATCCCACTTCATTCTAAAAA | 20.7 % of maximum
AAAAAATTTGTTCGGGCTCATAACTGAAAA | 23.5 % of maximum
AAAAAATGTATTCGTGTCCACTCCATAAAA | 15.4 % of maximum
AAAAAAGTACATGCGTAGATAATGTTAAAA | 23.2 % of maximum
AAAAAACGCAACTCCGGATGTGGGGTAAAA | 14.6 % of maximum
AAAAAAGTCTGCGTCCTACCCCATTCAAAA | 40.4 % of maximum
AAAAAACATTGATAAAATCTCCAGGCAAAA | 20.4 % of maximum

Series 2
Target: Fragile X messenger ribonucleoprotein 1, C-terminal low-complexity region (Fmr1, Mus musculus, UniProt P35922)
Technique: RNA Bind-n-Seq
Molecule type: RNA
Medium: in vitro
Concentration: 200 nM
Notes: whole 134-nt RNA, ends assumed
Added: 150 mM LiCl
Baseline: input library
Reading: higher = stronger binding
Each molecule: 7-deaza-guanosine replaces G
All sequences stand within: GGGAGUUCUACAGUCCGACGAUC … UGGAAUUCUCGGGUGUCAAGG
Strand | log2 enrichment
UCCUGUGCUACACAUCGUAUGUACCGAAUCAAAUUUUUAAACCCCCAAAUUUUUUUAAAAAAGUAUUAUGUUACGCCGUUCGGAUCUGCA | 0.503
AAGUCCUGUGCUACACAUCGUAUGUACCGAAUCAAACCCAAAUUUUUAAAUUUAAAAAAGUAUUAUGUUACGCCGUUCGGAUCUGCACUU | -1.33
AAGUCCUGUGCUACACAUCGUAUGUACCGAAUCGGUUUUUUUGGUUUUUUUGGUGGAAAGUAUUAUGUUACGCCGUUCGGAUCUGCACUU | -2.43
CCUCAAGUCCUGUGCUACACAUCGUAUGUACCGAAUCGGGGUGGUGGGUGGGAAAGUAUUAUGUUACGCCGUUCGGAUCUGCACUUCCAG | -0.372
GCAGGAAGUAAAAACAAAUAAAAAUGCUUCGGAUAGUGGCAGGGGUGGGGGUUGCUAAGGAAAGGGUGGGAUGGGAGUGGGUAAAGAGUU | 1.3
AAGUCCUGUGCUACACAUCGUAUGUACCGAAUCGGGGUUUGGGGUUUGGGUUUGGGAAAGUAUUAUGUUACGCCGUUCGGAUCUGCACUU | -1.35
CCUCAAGUCCUGUGCUACACAUCGUAUGUACCGAAUCGGGGCGGCGGGCGGGGAAAGUAUUAUGUUACGCCGUUCGGAUCUGCACUUCCA | -1.03
GUCCUGUGCUACACAUCGUAUGUACCGAAUCAAAUUUAAAUUUUUAAACCCCCCCAAAAAAGUAUUAUGUUACGCCGUUCGGAUCUGCAC | 1.65

Series 3
Target: Histone acetyltransferase KAT6A, winged helix 1, GST fusion (KAT6A, Homo sapiens, UniProt Q92794, residues 1-85)
Technique: protein binding microarray
Molecule type: double-stranded DNA, one strand shown
Medium: in vitro
Concentration: not given
Notes: 8-mer, flanks averaged, mean of 2 arrays, mostly near background
Baseline: not given
Reading: higher = stronger binding
Construct (chain): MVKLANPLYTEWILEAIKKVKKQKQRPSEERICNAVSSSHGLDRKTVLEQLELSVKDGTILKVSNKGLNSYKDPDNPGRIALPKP
Strand | E-score
GGTTGAAC | 0.0278
GTGTTTAA | -0.0293
GGTACAAA | -0.144
ATCCGGAC | 0.00438
CGTCGACA | 0.0404
ATCTCCCA | -0.183
ATAGCCAC | -0.102
CAGACGCA | -0.0436

Further values, each from its own experiment
SMILES | target | observed | technique | measurement | result
CO[C@@H](C)c1c(Nc2ccc([C@@H](N(C)C(=O)C3CCS(=O)(=O)CC3)C(F)(F)F)cc2)cnc2cc(Cl)nn12 | 5-hydroxytryptamine receptor 7 (HTR7, Homo sapiens, UniProt P34969) | binding | radioligand binding | Ki | > 10 µM

Repeated from above (series 3):
Strand | E-score
CGTCGACA | 0.0404
